Measurements gathered from unrelated publications.
Compare with care: the assays were run in different laboratories. Several values in a cell are separate wells, animals, samples, runs or records.
Chain of UniProt P35916 (whole entry, looked up): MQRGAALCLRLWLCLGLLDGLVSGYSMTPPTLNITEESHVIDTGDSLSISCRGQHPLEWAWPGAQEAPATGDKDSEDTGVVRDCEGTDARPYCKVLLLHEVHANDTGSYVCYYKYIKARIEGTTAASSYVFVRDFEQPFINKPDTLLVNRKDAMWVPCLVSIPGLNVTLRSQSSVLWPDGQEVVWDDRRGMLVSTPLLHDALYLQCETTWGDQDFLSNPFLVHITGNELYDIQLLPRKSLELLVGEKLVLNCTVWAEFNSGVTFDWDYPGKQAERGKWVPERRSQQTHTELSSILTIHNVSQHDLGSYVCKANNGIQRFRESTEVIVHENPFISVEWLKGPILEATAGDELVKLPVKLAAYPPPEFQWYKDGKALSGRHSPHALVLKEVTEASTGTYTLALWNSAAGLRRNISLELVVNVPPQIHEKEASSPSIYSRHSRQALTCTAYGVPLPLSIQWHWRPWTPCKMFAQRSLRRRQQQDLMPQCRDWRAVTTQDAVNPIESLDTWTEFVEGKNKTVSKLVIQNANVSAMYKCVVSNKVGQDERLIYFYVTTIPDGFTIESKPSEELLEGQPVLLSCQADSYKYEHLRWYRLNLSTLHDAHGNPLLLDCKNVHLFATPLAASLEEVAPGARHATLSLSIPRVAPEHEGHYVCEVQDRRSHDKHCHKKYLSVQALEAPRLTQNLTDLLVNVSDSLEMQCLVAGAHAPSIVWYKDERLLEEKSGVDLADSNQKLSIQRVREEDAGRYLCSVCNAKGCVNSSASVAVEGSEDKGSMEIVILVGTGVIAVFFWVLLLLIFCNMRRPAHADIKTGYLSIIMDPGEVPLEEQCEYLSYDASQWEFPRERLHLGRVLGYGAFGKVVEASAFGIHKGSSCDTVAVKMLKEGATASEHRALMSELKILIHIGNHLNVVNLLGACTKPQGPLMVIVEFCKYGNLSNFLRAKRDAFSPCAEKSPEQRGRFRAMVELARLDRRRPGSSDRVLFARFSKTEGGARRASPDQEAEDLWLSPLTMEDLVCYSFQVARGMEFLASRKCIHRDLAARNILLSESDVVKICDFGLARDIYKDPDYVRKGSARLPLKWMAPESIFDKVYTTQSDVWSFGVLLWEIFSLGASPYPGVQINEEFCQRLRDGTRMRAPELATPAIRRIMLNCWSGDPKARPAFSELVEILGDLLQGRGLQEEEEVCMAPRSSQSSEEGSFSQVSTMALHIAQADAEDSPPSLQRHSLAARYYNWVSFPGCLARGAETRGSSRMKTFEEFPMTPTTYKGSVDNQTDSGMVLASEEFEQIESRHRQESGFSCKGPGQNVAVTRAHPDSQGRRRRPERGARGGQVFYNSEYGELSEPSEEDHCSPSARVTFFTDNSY

Compound	tested on	test	test system	setting	scale	endpoint	value
Cc1nn(-c2cccc(N)c2)c(=O)c2cnc(Nc3ccc(N4CCNCC4)cc3)nc12	Vascular endothelial growth factor receptor 3 (FLT4, Homo sapiens, UniProt P35916)	enzyme activity, inhibitor				IC50	> 10000 nM
O=C(C[Se]C(=O)c1cc2ccccc2[nH]1)Nc1cccc(C(F)(F)F)c1	HCC 2998	cell growth or viability, SRB				GI50	430 nM
Cc1ncsc1-c1ccc(C(C)NC(=O)C2CC(O)CN2C(=O)C(NC(=O)CCCCCCCCCCN2CCCC(Nc3ncc(Cl)c(Nc4ccccc4S(=O)(=O)C(C)C)n3)C2)C(C)(C)C)cc1 (stereo not drawn)	22Rv1	RNA-seq, measured: SLC16A9 mRNA		concentration not given	baseline: DMSO	log2 fold change	-1.46
O=CCNCCOn1c(=O)n(OCCNCCO)c(=O)n(OCCNCCOn2c(=O)n(OCCNCCO)c(=O)n(OCCNCCO)c2=O)c1=O	A549	cell growth or viability, MTT		50 µg/mL, 48 h		viability	30.9%
C=CC(=O)N1[C@H](c2ccc3c(c2)OCO3)c2[nH]c3ccccc3c2C[C@@H]1C(=O)N1CCN(C)CC1	human cyclin E1 N112C-3xFLAG:CDK2	co-IP with TMT proteomics, measured: TUBA1A		concentration not given, Q71U36	baseline: wild type DMSO	relative co-enrichment	112%
CC(C)c1ccc(N(C)c2ccc3c(c2)OCC[C@H]3CNc2cnccc2C(=O)O)cc1	RKO	cell growth or viability, ATP luminescence		7 days		IC50	11.5 nM
Cn1ncc2cc(-c3cncc(Cl)c3N3CCC4(CCNC4=O)CC3)ccc21	LS174T	gene expression, microarray, measured: POU2AF1 mRNA		concentration not given, 24 h	baseline: untreated cells	log2 fold change	2.45
Nc1ncc(-c2cc(-c3cnn(CC(F)(F)F)c3)ncc2F)nc1C(=O)NC1CNCC(F)C1 (stereo not drawn)	INSRR	KINOMEscan		1 µM	baseline: DMSO control	remaining binding	53%
COc1cc(N(C)CCN(C)C)c(NC(=O)/C=C/c2ccc(C#N)cc2)cc1Nc1nccc(-c2cn(C)c3ccccc23)n1	NCI-H1975	cell growth or viability, MTT		0.5 µM, 72 h		inhibition	67.7%
COC1CN([C@H]2CC[C@H]([C@@]3(C)Oc4c(Cl)cc(C(=O)NCc5c(SC)cc(C)[nH]c5=O)c(C)c4O3)CC2)C1		RNA-seq, measured: BAIAP2	human, whole blood	dose not given, 24 h	baseline: pretreatment baseline	log2 fold change	2.07
CCN(CC)CC(=O)Nc1cccc(-n2cc(-c3ccc4ccc(-c5cn(-c6cccc(NC(=O)CN(CC)CC)c6)nn5)cc4c3)nn2)c1	RCC4	PCR angiogenesis array, measured: COL4A3		5 x IC50, 2 h, normoxia	baseline: untreated	fold regulation	-1.04
CNS(=O)(=O)Nc1nccc(Cc2c(C)c3ccc(Oc4ncccc4F)cc3oc2=O)c1F	RKO	cell viability		7 days		IC50	156 nM
COc1ccccc1-c1ccncc1C(=O)Nc1nnc(OCc2ccc(Cl)cc2)s1	MDA-MB-231			12 µM, single replicate		colony count	19 and 21 and 25
C=CC(=O)Nc1cccc(Cn2ncc3cnc(Nc4cnn(CCOC)c4)nc32)c1	human TRKB	KINOMEscan		100 nM	baseline: control	binding	56%
CN1CCCNC(=O)c2cccc(c2)C(=O)NCCCN(C)CCCNc2cccc3c2C(=O)c2cccc(c2C3=O)NCCC1	SAS	RNA-Seq, measured: NEK9 mRNA		1 µM, 6 h	baseline: untreated cells	log2 fold change	1.11

Repeated from above:
Compound	tested on	test	test system	setting	scale	endpoint	value
O=C(C[Se]C(=O)c1cc2ccccc2[nH]1)Nc1cccc(C(F)(F)F)c1	HCC 2998	cell growth or viability, SRB				GI50	430 nM
